Experimental data gathered from unrelated publications.
Lines come from different studies, so protocols differ. Values joined by “and” are separate records of one study, mostly repeats; a detail may differ. Numbers after ± are the reported error. ≈ marks a conversion by molar mass, not a printed value.
Organism: Staphylococcus aureus

Cc1c([N+](=O)[O-])oc2ccc3ccccc3c12 — MIC90 (REMA): 1 µg/mL (≈ 4.4 µM)
CN[C@H](CC(C)C)C(=O)N[C@H]1C(=O)N[C@@H](CC(N)=O)C(=O)N[C@H]2C(=O)N[C@H]3C(=O)N[C@H](C(=O)N[C@H](C(=O)O)c4cc(O)cc(O)c4-c4cc3ccc4O)[C@H](O)c3ccc(c(Cl)c3)Oc3cc2cc(c3O[C@@H]2O[C@H](CO)[C@@H](O)[C@H](O)[C@H]2O[C@H]2C[C@](C)(N)[C@H](O)[C@H](C)O2)Oc2ccc(cc2Cl)[C@H]1O — inhibition zone diameter (ATCC 25923; 64 µg per disk): 16 mm
O=[N+]([O-])c1cc2c(ccc3cc(Br)ccc32)o1 — MIC90 (REMA): > 32 µg/mL
CC[C@H](C)[C@H](NC(=O)[C@H](CCCCN)NC(=O)[C@H](Cc1c[nH]c2ccccc12)NC(=O)[C@H](Cc1c[nH]c2ccccc12)NC(=O)[C@H](CCCCN)NC(=O)[C@H](CCCCN)NC(=O)[C@H](CCCCN)NC(=O)[C@H](Cc1c[nH]c2ccccc12)NC(=O)[C@H](CCCCN)NC(=O)[C@H](CCCCN)NC(=O)[C@H](Cc1c[nH]c2ccccc12)NC(=O)[C@H](CCCCN)NC(=O)[C@H](CCCCN)NC(=O)[C@@H](NC(=O)[C@@H](NC(=O)[C@H](CCCCN)NC(=O)[C@@H](N)CCCNC(=N)N)[C@@H](C)CC)[C@@H](C)CC)C(=O)N[C@@H](Cc1c[nH]c2ccccc12)C(=O)N[C@@H](Cc1c[nH]c2ccccc12)C(=O)N[C@@H](CCCCN)C(=O)NCCOCCOCC(N)=O — MIC (broth microdilution; MRSA 109): 1.9 µg/mL
OB(O)c1csc2ccccc12 — biofilm formation (crystal violet; USA300 wild type; 10 µM; baseline: wild type untreated): 37.7% and 37.4% and 24%
CC[C@H](C)[C@H](NC(=O)[C@H](C)N)C(=O)N[C@@H](CO)C(=O)NCC(=O)N[C@@H](CO)C(=O)N[C@@H](CC(C)C)C(=O)N[C@H](C(=O)N[C@H](C(=O)N[C@@H](CC(C)C)C(=O)N[C@@H](Cc1ccccc1)C(=O)NCC(=O)N[C@@H](Cc1ccc(O)cc1)C(=O)N[C@@H](CCCNC(=N)N)C(=O)N[C@@H](CCCCN)C(=O)N[C@@H](CCCNC(=N)N)C(=O)N[C@@H](CCCCN)C(=O)N[C@@H](CCCNC(=N)N)C(=O)N[C@@H](CCCCN)C(N)=O)[C@@H](C)O)C(C)C — FICI (checkerboard; unit not given, with: oritavancin; lower means synergy): 0.08
C[C@H]1c2cccc(O)c2C(=O)C2=C(O)[C@]3(O)C(=O)C(C(N)=O)=C(O)[C@@H](N(C)C)[C@@H]3[C@@H](O)[C@@H]21 — MIC90: 1 µg/mL (≈ 2.25 µM)
O=C(O)c1cn(C2CC2)c2cc(N3CCNCC3)c(F)cc2c1=O — biofilm inhibition (ATCC 33591 MRSA; 4×MIC): 4.18%
CCC(CCCCCCCCCCc1cc(O)cc(O)c1)C(C)C (stereo not drawn) — IC50 (bacterial growth; MRSA USA300): > 200 µM
CC[C@H](C)[C@H](NC(=O)[C@H](CCCNC(=N)N)NC(=O)[C@H](CCCNC(=N)N)NC(=O)[C@H](CCCNC(=N)N)NC(=O)[C@H](CCCNC(=N)N)NC(=O)[C@H](CC(C)C)NC(=O)[C@H](CCCNC(=N)N)NC(=O)[C@H](CO)NC(=O)[C@@H](N)CO)C(=O)N[C@H](C(=O)N[C@@H](CC(C)C)C(=O)N[C@@H](CCCNC(=N)N)C(=O)N[C@@H](CCCNC(=N)N)C(=O)N[C@@H](CCCNC(=N)N)C(=O)N[C@@H](CCCNC(=N)N)C(=O)N[C@@H](Cc1ccccc1)C(=O)N[C@@H](CO)C(=O)N[C@@H](C)C(=O)N[C@@H](Cc1ccc(O)cc1)C(N)=O)C(C)C — MIC (broth microdilution; ATCC 29213; highest value reported): 32 µM
CC[C@H](C)[C@H](NC(=O)[C@H](Cc1ccccc1)NC(=O)[C@@H](NC(=O)[C@H](Cc1ccccc1)NC(=O)[C@@H]1CCCN1C(=O)[C@@H](NC(=O)[C@H](C)N)[C@@H](C)CC)[C@@H](C)CC)C(=O)N[C@@H](Cc1c[nH]c2ccccc12)C(=O)N[C@@H](CCCNC(=N)N)C(=O)N[C@@H](CC(C)C)C(=O)N[C@@H](CC(C)C)C(=O)N[C@@H](CCCNC(=N)N)C(=O)N[C@@H](CCCCN)C(=O)NCC(N)=O — MBC (ATCC 6051; 18 h, 37 °C): 1.88 µM (≈ 3.25 µg/mL)
Cc1c2c(nn1C)CSCc1cc(n(C)n1)CSc1cc(c3ccccc3c1)OCCCc1c(C(=O)O)n(C)c3c-2c(Cl)ccc13 — log2 fold change (label-free quantitative proteomics, measured: SAOUHSC_01835 protein; SA113; concentration not given; baseline: untreated control): 2.94
CC(C)C[C@H](NC(=O)[C@H](CCCCN)NC(=O)OCC1c2ccccc2-c2ccccc21)C(=O)N[C@H](C(=O)N[C@@H](Cc1ccccc1)C(=O)N[C@@H](Cc1ccccc1)C(=O)N[C@@H](CCCCN)C(=O)NCC(=O)N[C@@H](Cc1ccccc1)C(=O)N[C@@H](C)C(=O)N[C@@H](Cc1c[nH]c2ccccc12)C(=O)N[C@@H](CC(N)=O)C(=O)N[C@H](C(=O)N[C@H]1CSSC[C@@H](C(=O)N[C@@H](Cc2c[nH]cn2)C(=O)N[C@@H](CCCNC(=N)N)C(=O)N[C@@H](CCCNC(=N)N)C(=O)N[C@@H](C)C(=O)N[C@@H](CC(N)=O)C(N)=O)NC(=O)[C@H](C(C)C)NC(=O)[C@H](CCCNC(=N)N)NC(=O)[C@H](C(C)C)NC(=O)CNC(=O)[C@H](CC(N)=O)NC(=O)[C@H](CCCNC(=N)N)NC(=O)[C@H](Cc2ccc(O)cc2)NC(=O)[C@H](C(C)C)NC1=O)C(C)C)C(C)C — EC50 (bactericidal activity; CGMCC 1.9; 24 h): 6.51 µM
CN[C@H](CC(C)C)C(=O)N[C@H]1C(=O)N[C@@H](CC(N)=O)C(=O)N[C@H]2C(=O)N[C@H]3C(=O)N[C@H](C(=O)N[C@H](C(=O)O)c4cc(O)cc(O)c4-c4cc3ccc4O)[C@H](O)c3ccc(c(Cl)c3)Oc3cc2cc(c3O[C@@H]2O[C@H](CO)[C@@H](O)[C@H](O)[C@H]2O[C@H]2C[C@](C)(N)[C@H](O)[C@H](C)O2)Oc2ccc(cc2Cl)[C@H]1O — MIC range (broth microdilution; vancomycin-intermediate clinical isolates): 4 µg/mL (≈ 2.76 µM)
CN[C@H](CC(C)C)C(=O)N[C@H]1C(=O)N[C@@H](CC(N)=O)C(=O)N[C@H]2C(=O)N[C@H]3C(=O)N[C@H](C(=O)N[C@H](C(=O)O)c4cc(O)cc(O)c4-c4cc3ccc4O)[C@H](O)c3ccc(c(Cl)c3)Oc3cc2cc(c3O[C@@H]2O[C@H](CO)[C@@H](O)[C@H](O)[C@H]2O[C@H]2C[C@](C)(N)[C@H](O)[C@H](C)O2)Oc2ccc(cc2Cl)[C@H]1O — ROS level (DCFH-DA fluorescence; MRSA ATCC 33591; 2 × MIC; higher = more ROS): 791 a.u.
COc1ccc2c(ccc3oc([N+](=O)[O-])c(OC)c32)c1 — MIC90 (REMA): > 32 µg/mL
CC[C@H](C)[C@H](NC(=O)[C@H](Cc1c[nH]c2ccccc12)NC(=O)[C@@H](NC(=O)[C@H](Cc1c[nH]c2ccccc12)NC(=O)[C@@H]1CCCN1C(=O)[C@@H](NC(=O)[C@H](C)N)[C@@H](C)CC)[C@@H](C)CC)C(=O)N[C@@H](Cc1c[nH]c2ccccc12)C(=O)N[C@@H](CCCNC(=N)N)C(=O)N[C@@H](CC(C)C)C(=O)N[C@@H](CC(C)C)C(=O)N[C@@H](CCCNC(=N)N)C(=O)N[C@@H](CCCCN)C(=O)NCC(N)=O — MBC (ATCC 6051; 18 h, 37 °C): 0.94 µM (≈ 1.7 µg/mL)
CNC(C)C1CCC(N)C(OC2C(N)CC(N)C(OC3OCC(C)(O)C(NC)C3O)C2O)O1 (stereo not drawn) — MLC (broth microdilution): 4 ± 1 µg/mL (≈ 8.38 µM)

A few entries again:
CN[C@H](CC(C)C)C(=O)N[C@H]1C(=O)N[C@@H](CC(N)=O)C(=O)N[C@H]2C(=O)N[C@H]3C(=O)N[C@H](C(=O)N[C@H](C(=O)O)c4cc(O)cc(O)c4-c4cc3ccc4O)[C@H](O)c3ccc(c(Cl)c3)Oc3cc2cc(c3O[C@@H]2O[C@H](CO)[C@@H](O)[C@H](O)[C@H]2O[C@H]2C[C@](C)(N)[C@H](O)[C@H](C)O2)Oc2ccc(cc2Cl)[C@H]1O — ROS level (DCFH-DA fluorescence; MRSA ATCC 33591; 2 × MIC; higher = more ROS): 791 a.u.
COc1ccc2c(ccc3oc([N+](=O)[O-])c(OC)c32)c1 — MIC90 (REMA): > 32 µg/mL
